Assay results gathered from unrelated publications.
A part holds a random share of what one study measured. Changes are numbered by the printed parent chain.

Set 1
Target: RING finger protein unkempt homolog, zinc fingers 1-6, GST-SBP tag (UNK, Homo sapiens, UniProt Q9C0B0, residues 30-357)
Chain of UniProt Q9C0B0 (30-357, looked up): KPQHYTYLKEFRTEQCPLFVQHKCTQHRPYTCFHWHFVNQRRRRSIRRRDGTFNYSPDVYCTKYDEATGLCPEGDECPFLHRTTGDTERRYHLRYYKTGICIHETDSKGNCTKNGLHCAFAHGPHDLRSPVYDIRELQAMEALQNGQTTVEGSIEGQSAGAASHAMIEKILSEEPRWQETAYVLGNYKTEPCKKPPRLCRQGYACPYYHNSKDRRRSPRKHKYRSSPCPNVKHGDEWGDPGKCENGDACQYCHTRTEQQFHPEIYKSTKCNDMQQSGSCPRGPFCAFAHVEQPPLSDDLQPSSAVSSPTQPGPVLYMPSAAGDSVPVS
Method: RNA Bind-n-Seq
Molecule type: RNA
Sample: in vitro
Tested at: not given
Notes: RNA with constant flanks, human and mouse sites, ends assumed
Reference: input RNA pool
Direction: higher = stronger binding
Shared flanks, not repeated: GGGAGUUCUACAGUCCGACGAUC … CAACAGAGGAUUGAGCAUCA
Oligonucleotide | bound/input enrichment
CCGGAAGAACAUUUGGAAGGGGUGAUGAAAAUUAUGUCCCCCAACAACAACAAGCUACACAGCUUCCACAUUCCUAAGAAAGGCCCAGCCGCCAAGAAGCCAGGGAAGCACAGUGACAAA | 0.179 ratio
UUUCAUCCAGAGUUUGCUAAUCCAGACUUUACACAACCUAUCUCAGAAGUUGUAGAUGAAGUAAUUCAGAAUUGUCCUAUUGAUGUCAGACGUCCUCUCUACAAGAAUAUUGUCCUCUCU | 0.131 ratio
GCAGAGGGACAGAGAAGAGGAUCCCAGGGUGACAUUAAGCAGCAAAAUGGCCCACCAAGAAAACACAUUGUGGAGCGCAACACGGAGUUUUAUCACAUACCCACUCACAGUGAUGCCAGC | 0.401 ratio
AAAGAGAAACUAAAGCAACUAAUAGAGAAGAGGAUUGGCAAAGAGAAUUUCAUAGAGAAACUAGGAUUUAUUAGCAAACAUGAGUUAUAUUCCAGAGCGUCUCAGAAACCCCAGCCAAAC | 7.73 ratio
GAAAUUAAAGAGCCUGAAAGUUUUAAUGCAGCUGCUCAGGAAGCAGAAGCUCCUUAUAUAUCCAUUGCAUGUGAUUUAAUUAAAGAAACAAAGCUCUCCACUGAGCCAAGUCCAGAGUUC | 0.338 ratio
UGUAAGCUGCCAAGACUGUCUCUGAAUGGAGUCCGGUUUAAGCGGAUAUCAGGGACAUCCAUAGCUUUCAAAAAUAUUGCUUCCAAAAUUGCCAAUGAGCUAAAGCUGUAACCCAGUAAU | 0.85 ratio
UCUGUUCUCUUGGAUGAGAUACUGAAGGACCCAGAGCACCCUAGCAAGGAUUACAUAAUGAACUUUGAGAUCCGGUCCCUGCGAGACAGCCGAGCAUUGAUUGAGAAAGUUGGAAUUGAA | 0.358 ratio
CUAUGCAAAGACUCCCUUUCCUCUCUGACCUCCUGUGCCCUAAGGUCUUGGUUUGUUUGAUUAUUUAUUUAUUUAUUUGCCAAAAAGUUUCUCUCCUUGACUCACAGAACGUAUCCUAAU | 0.987 ratio
UCCGACCUGCAGGGGUAGCGCGGCCUCGGCGCCGGAGACCCGCGCGCUGUCUGGGGCUGCGGUGGCGUGGGGAGGGCGCGGCCCCCGGACGCCCCGAGGAAGGGGCACCUCACCGCCCCC | 1.32 ratio
GUUAUGUUGCCCUGUCUUUCCUCUUUGUGCUGUCUUUGAUCUGUUUGCUUGGCUUAGUAUUACAAAAAAACAAGGACAAUAAUAUAUUCCAAGCUGGUCCCCAAGAUUCCGUUCAGGCUG | 0.673 ratio
GAGCGUCUCGCUCGAACCGGGAUCAUAGUGACCACGAGUGAGGCUGUUCUGCUUCAGCUGGUAGCUGAUAAGGACCAUCCAAAAUUCAAGGAAAUUCAGAAUCUAAUUAAGGCGAGUGCU | 0.193 ratio

Set 2
Target: ABI1, truncated, D143A, DHFR fusion (Arabidopsis thaliana)
Method: DHFR PCA, deep sequencing
Sample: yeast
Notes: methotrexate growth selection, single substitutions
Together with: (+)-ABA 0.032 µM
Reference: wild-type fitted maximum
Direction: higher = stronger binding
Parent: PYL1, truncated, DHFR fusion (Arabidopsis thaliana); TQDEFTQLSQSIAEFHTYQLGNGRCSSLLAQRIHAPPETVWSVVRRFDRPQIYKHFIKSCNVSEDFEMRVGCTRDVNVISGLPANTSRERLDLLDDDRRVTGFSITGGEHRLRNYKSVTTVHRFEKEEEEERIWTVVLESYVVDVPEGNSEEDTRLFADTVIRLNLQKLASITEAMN
Substitution | relative binding score [%]
I57C | -1.87
Y18N | -0.623
E127V | 31.4
A30Y | 11.1
I57G | -3.1
Q31A | 4
D48G | 6.55
D65G | 19.9
W41F | -15.7
D75P | -1.38
F157V | 9.18
V44C | -1.01
C72G | -1.56
L166Q | 3.46
G81A | 9.57
Y18D | -0.466
I162E | 3.21
D48M | -0.223
D153K | -2.14
T17K | 6.69
Y53M | -6.89
G71A | 2.58

Set 3
Target: Sal-like protein 4, full length isoform B (SALL4, Homo sapiens, UniProt Q9UJQ4-2, residues 1-616)
Method: universal PBM
Molecule type: double-stranded DNA, one strand shown
Sample: in vitro
Tested at: not given
Notes: 8-mer, flanks averaged, mean of replicates
Direction: higher = stronger binding
Oligonucleotide | E-score
ACCACTCA | -0.0254
TAGCACTA | 0.0859
TACATTAA | 0.307
ACTGAGTG | -0.106
AGGCTACG | -0.178
AAGGCGCG | -0.204
TCTTCCCA | -0.197
CGGCTCGC | -0.168
CTCTGTCC | -0.18
AAACAACC | -0.0615
AGGTCGTG | -0.163
AGCTCTAT | -0.0284
GTACCCCA | -0.0976
CCGCTTCC | -0.203
GAGAGCCC | -0.264
AGAACATG | 0.145
GGAACTTA | 0.0769
CGGCCTAA | -0.146
AAGAACTG | -0.0443
CATGAGGC | -0.209
AATAGACT | 0.123
AAGGGGCC | -0.31
GGACTGAC | -0.307

Set 4
Target: CCNA2, cyclin fold, Cln2 fusion (human)
Method: yeast growth competition, sequencing
Sample: yeast
Notes: strong parent motif
Reference: not given
Direction: higher = stronger binding
Parent: WEE1 docking peptide (human); HKTFRKLRLFDTP
Substitution | normalised enrichment score
R8E | 2.44
K6L | 1.35
F4Y | 0.569
L7Q | 1.42
F10D | 0.746
K6I | 1.46
P13C | 2.15
H1W | 2.2
T3D | -0.295
F10S | 0.93
T12C | 1.21
F10C | 0.675
F10L | 1.03
F10Q | -0.192
L7M | 0.876
F10A | 1.28
T12R | 1.7
P13I | 1.49
T3I | 1.64
T12L | 0.837
T12Y | 0.833
T3R | 1.17
D11G | 0.258
L9P | 0.996
T3C | 0.599

Set 5
Target: Histone acetyltransferase KAT6A, winged helix 2, GST fusion (KAT6A, Homo sapiens, UniProt Q92794, residues 85-181)
Method: protein binding microarray
Molecule type: double-stranded DNA, one strand shown
Sample: in vitro
Tested at: not given
Notes: 8-mer, flanks averaged, mean of 2 arrays, mostly near background
Reference: not given
Direction: higher = stronger binding
Residues (chain): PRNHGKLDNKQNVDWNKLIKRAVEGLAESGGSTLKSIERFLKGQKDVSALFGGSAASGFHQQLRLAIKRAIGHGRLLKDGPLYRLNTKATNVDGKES
Oligonucleotide | E-score
CACTGGTC | -0.0312
ACGTGCAT | -0.21
GACCAAAC | -0.0329
CACATACC | 0.0506
ACGATGAG | 0.0192
CATCGACG | 0.0342
ACCAACAA | 0.169
AGGCGGTA | 0.125
GATTGAAA | -0.0838
GTTCTGTA | -0.0823
AGAGCCGG | 0.125
GCTATAAA | 0.0379
CGCTCTCA | -0.088
AACTAGCC | -0.143
GGTAGAGA | -0.11
GACGGGCC | 0.0679
CCGGAGCG | 0.159
CCTGGCCA | -0.0698
AGGCCGCA | -0.022

Set 6
Target: RNA binding protein fox-1 homolog 2, RRM domain, GST-SBP tag (RBFOX2, Homo sapiens, UniProt O43251-10, residues 100-194)
Method: RNA Bind-n-Seq
Molecule type: RNA
Sample: in vitro
Tested at: 365 nM
Notes: natural RNA segment, single round, ends assumed
Reference: no-protein control
Direction: higher = stronger binding
Shared flanks, not repeated: GGGAGUUCUACAGUCCGACGAUC … UGGAAUUCUCGGGUGCCAA
Target sequence (chain): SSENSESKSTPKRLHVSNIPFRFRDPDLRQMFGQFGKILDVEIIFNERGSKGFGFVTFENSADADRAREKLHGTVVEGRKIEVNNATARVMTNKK
Oligonucleotide | RBNS enrichment (R)
CAGAUUGUCUGUGACACUCAAGCCCCUCUCAUUUUUAUCUGUCUACCUCCAUUCUGAAGAGGGAGGUUUUGGUGUCCCUGGUCCUCUGGGAAUAGAAGAUCCAUUUGUCU | 0.374
UGGCUGAGUCCUUCUCAUCAUGGGACGAGUGAGCCAGAGCGGGGGAAAGGGCAUGAAGUAAAGCGUUGCCUGAAUGCUGUGUGGUGUUUUGUUUCUUCCUCCUUCCUAUG | 0.895
CUAGGGCCGCCCCUCUGGAAAGGUUCCAUGUGUCUCCAUCCCCAUCCCUUACUCUUCGGGUCAGCUGUUGAGAAGAGGCGGGUUUUCUUCAUUGGCCUAGAUUUUGCGGC | 0.376
CUUCAUCCUACCCAGAAAUUAUUGAUUUUCAAGUUUUAAAAAAAUUGUACCUUUUUUGCUGACAGAAAAGGAUCAGAUAUGUAUAAAAUAGUUGAACUUGACAGCAUAUA | 0.779
UGCUCUUUUUUACUCAUUGAAAUGUCAUGUGUUGUCUGAUUGGCUUGUAGAAUUGUUAUAGAUUACCGUGCAUUAGCACAGAUUUUAAUUGUCAUGAUUGCAGACUACAG | 0.665
CCAUAGCCCUCCUGAUGCAGUAGACAGUGCUAUGCUGUGGAUAUAAUACCAACCAGAAAUUGGCAUUUAUAAACCUGUUAAGAGACUUUAAGCAUGCUUCAAGAGGCAGU | 0.474
GGAGGGAGGGUCUCUCUGCUGGCACUGUCUAACUUGCUUACCUGCUGACUUUGCAGUUUGCUUGUGCUAUGACAUUUAUUGUAGGUGCUAUUUAGGGUAGGCUUAAAGUG | 0.313
AUUGGUACCAGUAGAUCAGCUGCCUAGCGAGGGCAGGUUUCUUCUUUGCAUCUGUGUGGCUUGCUUCCAGUCUGGCCUGUCCUUUCCAGCUGCCUUUUGUCUAGCCUGCU | 1.01
AGAUGCAUGAGACAAGAUGGAUUGCGAGCAAUUAGUGGAUGUGUGCACUUUUUGUUCAGAGUUUAAGGCUAGGAUAUUGGUUUUUCCCACUGACUGAGCUGUCCUGCAAA | 16.3
GGCUGAGGGGGAGCUGCGUCUUGCUAGGGCUUCCCCCUUCUCCCCAUCCCGGUCUCCAGAGACCCAGCUUCUGAGAGACAGGGUGUGGGCAUCUCCAUGCCCCUAUAAAG | 1.48
AGGUAGGGUUUAAAGACCCCCAGUGGGAGCAUUUAGAUGGCAGGCGGCUGCAAGGAGUCUGCAGUGGUAACAGCUUCUCUCUAGCCUGGCUGGCUUUGGUAGGCAAAAGU | 0.485
UUUAUAGCAAAGUUAUCUUAAAUAUGAAUUCUGUUGUAAUUUAAUGACUUUUGAAUUACAGAGAUAUAAAUGAAGUAUUAUCUGUAAAAAUUGUUAUAAUUAGAGUUGUG | 0.402

For quick reference, copied from above (set 4):
Substitution | normalised enrichment score
L7Q | 1.42
H1W | 2.2
T3C | 0.599
R8E | 2.44
L7M | 0.876
F10L | 1.03
T3D | -0.295
T12R | 1.7
F10D | 0.746
